Measured values collected from several papers.
Parts stem from different laboratories: compare values within a part only.

Sample 1 — method: RNA Bind-n-Seq; molecule type: RNA; medium: in vitro; tested at: 200 nM; notes: whole 134-nt RNA, ends assumed; together with: 150 mM LiCl; reference: input library; direction: higher = stronger binding; all molecules: 7-deaza-guanosine replaces G
Target: Fragile X messenger ribonucleoprotein 1, C-terminal low-complexity region (Fmr1, Mus musculus, UniProt P35922)
Shared flanks, not repeated: GGGAGUUCUACAGUCCGACGAUC … UGGAAUUCUCGGGUGUCAAGG
| Oligonucleotide | log2 enrichment |
| --- | --- |
| CAAGUCCUGUGCUACACAUCGUAUGUACCGAAUCGGGUUUUUUUGGGAGGGAGGGAAAGUAUUAUGUUACGCCGUUCGGAUCUGCACUUC | -0.0925 |
| UCCUGUGCUACACAUCGUAUGUACCGAAUCGGUUUUUUGGGUUUUUUGGGUUUUUUGGGAAAGUAUUAUGUUACGCCGUUCGGAUCUGCA | -0.344 |
| UCAGAAGGUCUUUUAAGUCUGACCACCCAGCUUGUCAAGGAAAAACUCUCCACCUGUGAAGCAGAGGACAUCGCCACCUAUGAGCAGAAU | 1.54 |
| CUGUGCUACACAUCGUAUGUACCGAAUCAAAUUUUUUUAAAUUUUUUUAAACCCCCCCAAAAAAGUAUUAUGUUACGCCGUUCGGAUCUG | 0.992 |
| UAACUUUAGAGGAGGAUCUGAUGGAUAUGGCAGUGGACGUGGAUUUGGGGAUGGCUAUAAUGGGUAUGGAGGAGGACCUCGAGGUGGCAA | 0.752 |
| CCUGUGCUACACAUCGUAUGUACCGAAUCGGAAAAAAAGGAAAAAAAGGGGAAAAAAAGGAAAGUAUUAUGUUACGCCGUUCGGAUCUGC | -0.668 |
| AGUCCUGUGCUACACAUCGUAUGUACCGAAUCGGGGAAAAAAAGGGGAGGGGUGGGGAAAGUAUUAUGUUACGCCGUUCGGAUCUGCACU | -0.476 |
| GUCCUGUGCUACACAUCGUAUGUACCGAAUCGGGUUUUUGGGAAAGGGAAAAAAAGGGAAAGUAUUAUGUUACGCCGUUCGGAUCUGCAC | -0.835 |
| ACCAUGCAGGUGGGCAUCUUUGGGAAGUGGGGCAAGAAAGGGAUAGGGAGGGGGGUAACACUUUGGGAACAGGUGGUCCCAGGUCGUUUC | 0.718 |
| UGGGAGGUAGAUUUUGUUUAUUUUUUUAGCUCAUUUCCAGGGGUGGGAAUUUUUUUUUAAUAUGUGUCAUGAAUAAAGUUGUUUUUGAAA | 1.23 |
| GCAUGAAGUAAAAACAAAUGGAAAUGCUUCGGAUAGUGGCAGGGGUGGGGGUUGCUAAGGAAAGGGUGGGAUGGGAGUGGGUAAAGAGUU | 1.23 |

Sample 2 — method: competition protein-binding microarray; molecule type: double-stranded DNA, one strand shown; medium: in vitro; tested at: 2 µM; together with: Cbf1 competitor, 0.05 µM; direction: higher = stronger binding; shared flanks, not repeated: … GTCTTGATTCGCTTGACGCTGCTG
Target: Phosphate system positive regulatory protein PHO4, full length, GST-tagged (PHO4, Saccharomyces cerevisiae, UniProt P07270, residues 1-312)
Notes: whole 60-bp probe, lowest competitor level
Target sequence (chain): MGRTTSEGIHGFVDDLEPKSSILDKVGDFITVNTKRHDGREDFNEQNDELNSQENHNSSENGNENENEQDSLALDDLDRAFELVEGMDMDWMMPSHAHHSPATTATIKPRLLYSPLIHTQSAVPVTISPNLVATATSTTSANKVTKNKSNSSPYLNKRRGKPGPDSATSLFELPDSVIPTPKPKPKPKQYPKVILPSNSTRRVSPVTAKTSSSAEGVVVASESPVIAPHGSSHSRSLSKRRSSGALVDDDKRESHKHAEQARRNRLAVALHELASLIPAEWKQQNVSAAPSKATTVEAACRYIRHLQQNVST
| Oligonucleotide | fluorescence intensity [a.u.] |
| --- | --- |
| GTCTTGTCTCATTTTCACGTGGGTTTCCCCACTTCA | 14400 |
| AAAGCGGTAATTTTTCACGTGATCTCACATATCTAT | 11200 |
| GTTCAAGTCTCCTTCCACGGGAATGGTCGGGTAAAT | 5830 |
| TTGTCTCACTATTAACGCGTGGCCGGGTAAGACCCA | 9400 |
| CATACCCAACCTTTTCACGTGGTCTAAGATATTTGT | 14300 |
| CGACAAATAGTAGCTCGCGTGGCCGAATGGCAACGC | 6950 |
| CATATGTTTTAGCTGATTATAATTCTTCGATCGATG | 3810 |
| CGTCCTAGTGATTGTTACGTGGGTGCCATGAGGAAG | 9360 |
| ACTATACTCGTCTGGCACGTGAAGTACATGAACTCA | 16600 |
| CGGGGTTAAGTTTGTTGGGTGGGTGGCTTGCAGCAG | 4640 |
| CGGGGTTAAGTTTGTCACTGAACTTGCTTGCAGCAG | 3580 |
| TATGAATGCAACGGCCACGTGGGTAGAATGGGAGGA | 21700 |
| CGTCCTAGTGATTGCCCCGTGGGTGCCATGAGGAAG | 11200 |
| GTCTTGTCTCATTGCCGCGTGGGTGTCCCCACTTCA | 11700 |
| CTTCTGTAAATTTTTCACGTGAGCTGAGGCGCCCCG | 8590 |
| GAAGTTACCATTACCTGCATGACAAACAATGGCGTT | 5300 |
| GCACTAGTCCAATAAGTCGTGCGATTCCAAAGTTCA | 6720 |
| GGAAGAAATGTCCATCACGTGATGGAGAACCAATGA | 12900 |
| CGTCCTAGTGATTGTTTGGTGGGTGCCATGAGGAAG | 7920 |
| TACTCTGTAGTATTCCCCGTGAGGATCCACAGCACC | 5320 |
| AACCAGTTGTTAAATCATGTGGTTATGGTCTTGTCG | 8120 |
| CTTCTGTAAATTTGGCACGTGTTTTGACGCGCCCCG | 17800 |

Sample 3 — method: RNA Bind-n-Seq; molecule type: RNA; medium: in vitro; tested at: not given; reference: input RNA pool; direction: higher = stronger binding
Target: RING finger protein unkempt homolog, zinc fingers 1-6, GST-SBP tag (UNK, Homo sapiens, UniProt Q9C0B0, residues 30-357)
UniProt Q9C0B0, sequence (30-357, looked up): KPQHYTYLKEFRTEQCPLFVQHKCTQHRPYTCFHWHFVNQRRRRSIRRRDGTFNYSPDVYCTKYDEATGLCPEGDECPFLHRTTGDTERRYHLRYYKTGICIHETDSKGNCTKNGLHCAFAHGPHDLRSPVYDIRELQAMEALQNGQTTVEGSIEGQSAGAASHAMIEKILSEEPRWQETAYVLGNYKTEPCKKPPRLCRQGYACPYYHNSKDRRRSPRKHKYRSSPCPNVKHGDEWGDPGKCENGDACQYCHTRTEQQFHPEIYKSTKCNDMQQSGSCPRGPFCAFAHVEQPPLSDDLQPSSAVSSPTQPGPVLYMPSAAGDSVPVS
Notes: RNA with constant flanks, human-mouse chimeric sites, ends assumed
Shared flanks, not repeated: GGGAGUUCUACAGUCCGACGAUC … CAACAGAGGAUUGAGCAUCA
| Oligonucleotide | bound/input enrichment [ratio] |
| --- | --- |
| GAGUCGAUUAUGGAAACAACAAUUCGUUAUCUUGCAGCCUCAGUGUUCACUUGCUUGGCGAUAGCAUUGGGGUUUUAUAGGUUCUGGAAGGAGAACUUUAAUGCUCACUGCCGCUGCUGC | 0.228 |
| AUGGAGAAGGAUUCUCUGCCCCGCUUUGUGCGCUCUGAAUUUUAUAAGGAGUUAAUCAAGUAGUCAUCUGGUCAGGCUAUGAAAUCAUGCCCUGUGAGUUGAGUUACAUCCUUUGUAGCA | 0.269 |
| AUAAAGGCUAUGUUGAGUGGUCCAGGUCAGUUUGCUGAGAAUGAAACCAACGAGGUCAAUUUUAGAGAGAUCCCCUCACAUGUGCUAUCGAAAGUAUGCAUGUAUUUUACGUACAAGGUC | 0.182 |
| UCCCAAAUCCAGCAGCUAGAAGGAGCCUUGAGACAAAGCCUGGAAAUACAGGGAAGGCAAUAGCUUUGUACAUUGGUUUACAUUUUUUCCCCCUGUGGAUUUUUCUAGAGGUCAUAGUGC | 1.61 |
| AGAUAUUAAGUAUUUUGAAAAAACUCGAACAGAUUUGACAAGGGUAGCCAGCUUGGAGUCUAGCAACUUGCCAAUGUUGCUUACCAACUGGGGGCUUGUUUUUCUUUUCUUCUUUCAAAU | 0.282 |
| UACAUUUUAUUGUUGAGUUUCAUUUUCAUAUAUUCUUGUAGUGUCUGCUUGCCUGUGACUUCUGGUAAAAUAAAAUAAGCCUUUGAAAAUAUUUUAGCAUGGUAUUUUUCUAAAAAUAAA | 1.12 |
| ACCUCCCCCUCCCGCCUCACCCCACCCCCGCUUUUUGAAAGUGUGUUGGCGUUUCUUUUCCUUCCCCAUACAAAGUGAUUACAGUUUCCCCCGCAAGUGGGGCUUGAAGGGCUUGACGGA | 0.626 |
| CAACCUCAGAGCCCAGACUUCCUGGAUAUCACCAACCCUAAAGCGGUAUUAGAAAAUGCAUUGAGAAACUUCGCCUGUCUGACGACUGGAGAUGUGAUUGCUAUCAACUACAAUGAGAAG | 0.386 |
| GCUCUUGGGAAUGUAAUCAGCGCCUUGGGGGACAAGAGCAAGAGAGCCACACAUGUCCCUUACAGAGAUUCCAAGCUGACAAGACUCUUGCAGGAUUCCCUUGGGGGUAACAGCCAAACC | 0.119 |
| UGGCGCCUGCGCUCCCCACUCGUGUUUGUAUUUUUAUUUUUAUAAGAUACAUGUAUUUACAAUUGAGCUUUUGUUACAUAAUGCUGAAAUGCUACUGGAGAUUAUGAAAAAAUGUUAAAU | 0.205 |
| GCUCCUCUUCCGCACUCAGCCUGGGGACACUGGGCUGGGACCAGAAUCCAGCUUUCUUUUAAAACUCUCAGUGUAACUGUAUCCCGUGACAUUUCAUUUUUUUUAAAUAGUGUAUUUUUU | 3.93 |

Sample 4 — method: RNA Bind-n-Seq; molecule type: RNA; medium: in vitro; tested at: 365 nM; reference: no-protein control; direction: higher = stronger binding
Target: RNA binding protein fox-1 homolog 2, RRM domain, GST-SBP tag (RBFOX2, Homo sapiens, UniProt O43251-10, residues 100-194)
Notes: natural RNA segment, single round, ends assumed
Shared flanks, not repeated: GGGAGUUCUACAGUCCGACGAUC … UGGAAUUCUCGGGUGCCAA
Construct (chain): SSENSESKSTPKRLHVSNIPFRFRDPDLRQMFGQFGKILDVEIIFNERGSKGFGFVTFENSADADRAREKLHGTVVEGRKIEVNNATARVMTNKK
| Oligonucleotide | RBNS enrichment (R) |
| --- | --- |
| GCGUUUGGCAUUUGUGUUGAGCUUAGGGGAGCAUUGGCAUGGAGAAACUCCACGCUGGCGAAGUCCCGGGCUGGGCUUUCUCCUCCUCCCCCCACCUUUUUUCCCCUUGU | 0.269 |
| CCCAGACCUGCCUUCCUCCACCAAGAGAUCCUUAUUAAACACAGCCCCCAAAGCACAGAAUGGAUUCAAUUUGUGGCCUGGGUUCAGCUCUGCCUCUGCAGUUGGCAGGU | 0.544 |
| UCUUGUGCACCUGCAUCAGAAAACCAUAGGACAACAAGGUGGCUAGGCAGUUAUCACCCCUCUGCUGCCGUAUUCAUCACCCAGGCUCUCUUACAAGUUCCUUGUUAAUG | 0.417 |
| AGGUAUGUUAUGCACUACAGCCUGAUCUUUUCAGUCUAAGACAGCAUGGCUUCACUUUCCUGUGUUAUGAGAAGGUCACACUUUGGAAUACUGAAGGACAAUCCUGAAGU | 3.42 |
| GUUCUCUGUAAUUACAUGUCACCACACCAGGCUUUAGUGGCCAGGAGGGAUUUGACCUUGUUCCCAAGGGAUUGAGAGUCUAGUGAGCAGCCCAGGGGCAAAGGCAGUCA | 0.436 |
| AUACUCCCUGUGGGCAUUUUUAAAGAUGAUCAUUAAUCUAUAAGGAAUUUGCUAAGCUUUCUCUUGAAUUUGAGCCAGUGAGAAAAGCAGUCAGAAGAAUGUGAAGGAUG | 0.469 |
| UUUCUGAUUUCAUAAUUCAGAACUAAAUUUUUCAUAGAAGUGUUGAGCCAUGCUACAGUUAGUCUUGUCCCAAUUAAAAUACUAUGCAGUAUCUCUUACAUCAGUAGCAU | 0.423 |
| UAUUUUGUAUCUGAGAUACCAGUUCCUUUUCCCAAAUAUAAAAGUAUAAAAGUUUUCUUGUGUUUUUCUGUGAGUGAAAAUUUUGUAAUAAAUUAACAAAUUUGUACAAU | 0.765 |
| AGGCAGUGACAGUGAACUGUAAAUACCACAUGUGAGUUUACCUGGAUCUGUGCAUUUUGUGCCUUAUUCACUCGAGUGGUAGAAGUUCCGCGGUAUGUUGAGUGUUUCCA | 0.419 |
| UGCUCUAUCAUAGAUGAACAAAUACUUUCUUGAUCAUUCUGUAAGACCAGGAGGUUGGUAAGAGUGACUAACCAGCCUAACUUUAAUACACAUGUAUAAAGAUGUUCACA | 0.303 |
| GGAAUCAAUCUUCCUAAGCUGAAGAACCUCUACCUGGAGAUCAAAGACGCUGGCCUUCAGACCUGAUCAGACUCCCAGGGGCAGCCACCACAUGUAUGACAGAGAACAGA | 0.736 |
| GUUCACAUCCCAGACACCAGGGGUCAGGUACUAACUAAAGAGAUGGAAUGCAGUGUGCUUUUUGAGACACUAGGGGGAGCCUGGUAUUAACUAAACAGCUUGCCAUUCAA | 0.813 |

Repeated from above (sample 4):
| Oligonucleotide | RBNS enrichment (R) |
| --- | --- |
| GUUCUCUGUAAUUACAUGUCACCACACCAGGCUUUAGUGGCCAGGAGGGAUUUGACCUUGUUCCCAAGGGAUUGAGAGUCUAGUGAGCAGCCCAGGGGCAAAGGCAGUCA | 0.436 |
| UAUUUUGUAUCUGAGAUACCAGUUCCUUUUCCCAAAUAUAAAAGUAUAAAAGUUUUCUUGUGUUUUUCUGUGAGUGAAAAUUUUGUAAUAAAUUAACAAAUUUGUACAAU | 0.765 |
| AGGUAUGUUAUGCACUACAGCCUGAUCUUUUCAGUCUAAGACAGCAUGGCUUCACUUUCCUGUGUUAUGAGAAGGUCACACUUUGGAAUACUGAAGGACAAUCCUGAAGU | 3.42 |
| GUUCACAUCCCAGACACCAGGGGUCAGGUACUAACUAAAGAGAUGGAAUGCAGUGUGCUUUUUGAGACACUAGGGGGAGCCUGGUAUUAACUAAACAGCUUGCCAUUCAA | 0.813 |
| UUUCUGAUUUCAUAAUUCAGAACUAAAUUUUUCAUAGAAGUGUUGAGCCAUGCUACAGUUAGUCUUGUCCCAAUUAAAAUACUAUGCAGUAUCUCUUACAUCAGUAGCAU | 0.423 |
